Assay results gathered from unrelated publications.
Protocols differ between the studies behind these lines. Values joined by “and” are separate records of one study, mostly repeats; a detail may differ. Numbers after ± are the reported error.
UniProt P15735, sequence (whole entry, looked up): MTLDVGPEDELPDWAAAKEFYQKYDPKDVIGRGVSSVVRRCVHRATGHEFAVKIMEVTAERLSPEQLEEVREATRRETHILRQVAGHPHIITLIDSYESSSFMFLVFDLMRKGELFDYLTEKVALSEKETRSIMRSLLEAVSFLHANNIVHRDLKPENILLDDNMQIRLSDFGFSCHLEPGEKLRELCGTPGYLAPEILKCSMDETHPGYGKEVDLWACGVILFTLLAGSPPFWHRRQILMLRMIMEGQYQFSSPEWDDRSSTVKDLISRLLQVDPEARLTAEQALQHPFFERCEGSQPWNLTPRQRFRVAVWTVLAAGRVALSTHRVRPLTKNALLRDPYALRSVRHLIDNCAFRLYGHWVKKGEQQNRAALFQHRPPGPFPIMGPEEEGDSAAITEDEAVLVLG
UniProt P42679, sequence (whole entry, looked up): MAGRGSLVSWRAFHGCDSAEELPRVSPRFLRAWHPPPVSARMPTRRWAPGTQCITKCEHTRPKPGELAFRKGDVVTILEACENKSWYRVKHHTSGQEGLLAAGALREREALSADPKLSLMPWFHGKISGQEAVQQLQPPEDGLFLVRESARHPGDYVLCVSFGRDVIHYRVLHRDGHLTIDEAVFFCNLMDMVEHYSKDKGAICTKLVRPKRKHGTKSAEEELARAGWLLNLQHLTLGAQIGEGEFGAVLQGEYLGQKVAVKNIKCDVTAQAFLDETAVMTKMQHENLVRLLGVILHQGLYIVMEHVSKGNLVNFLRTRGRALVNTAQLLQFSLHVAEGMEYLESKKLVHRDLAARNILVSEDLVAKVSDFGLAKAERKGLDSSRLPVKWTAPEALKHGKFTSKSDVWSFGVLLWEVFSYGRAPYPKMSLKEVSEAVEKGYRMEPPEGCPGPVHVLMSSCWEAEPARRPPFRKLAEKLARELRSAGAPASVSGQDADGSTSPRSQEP

CC(C)C12OC1C1OC13C1(C)CCC4=C(COC4=O)C1CC1OC13C2OC(=O)CCCOC1OC(CO)C(O)C(O)C1O (stereo not drawn)
IC50 (LNCaP; cell growth or viability, XTT; 47 h): 0.45 µM

Oc1cccc2cccnc12.Oc1cccc2cccnc12.[Cl][Fe]([Cl])[Cl]
IC50 (BL2 Burkitt lymphoma cells; cell viability, MTT; 48 h): ~1 µM

CSCC[C@H](NC(=O)[C@H](CCCNC(=N)N)NC(=O)[C@H](CCCNC(=N)N)NC(=O)[C@@H](N)CCCCN)C(=O)N[C@@H](CCCCN)C(=O)N[C@@H](Cc1c[nH]c2ccccc12)C(=O)N[C@@H](CCCCN)C(=O)N[C@@H](CCCCN)C(=O)N[C@@H](CC(C)C)C(=O)N[C@@H](CCC(=O)O)C(=O)N[C@H](C(=O)N[C@@H](C)C(=O)N[C@H](C(=O)N[C@@H](CC(N)=O)C(=O)N[C@@H](CC(C)C)C(=O)N[C@@H](C)C(=O)N[C@@H](Cc1c[nH]c2ccccc12)C(=O)O)C(C)C)[C@@H](C)O
IC50 (MEC1; cell growth or viability, flow cytometry; 90 min): > 15 µM

COc1ccc(NC(=O)c2ccc3[nH]c(-c4ccc(N(C)C)cc4)nc3c2)cn1
IC50 (HCT-116; cell death): 6.9 µM

COc1ccccc1-c1n[nH]c2nc(N[C@H]3CC[C@H](NS(=O)(=O)CC(C)C)CC3)ncc12
relative abundance (bead binding, competition bead pull-down, item: LINJ.27.2570; Leishmania donovani extract; 10 µM; reference: vehicle): 0.0332

CC(C)[C@H]1NC(=O)C[C@H]2/C=C/CCSSC[C@@H](NC1=O)C(=O)N[C@H](Cc1cccc3ccccc13)C(=O)NCC(=O)O2
inhibition (MET (Homo sapiens, UniProt P08581, D1228H); enzyme activity, inhibitor; 10 µM): 1.7%

Cc1ccc2c(Cl)cc(Cl)c([O-])c2n1.Cc1ccc2c(Cl)cc(Cl)c([O-])c2n1.[Co+2].c1cnc2c(c1)c1nccnc1c1cccnc12
IC50 (HL-7702 normal hepatocytes; cell viability, MTT; 48 h): 60.2 ± 0.77 µM

O=C(O)C(Cl)Cl.OCCN(CCO)CCO
inhibition (Chenopodium album; herbicidal activity; 15 mg/mL, 21 days, post-emergence greenhouse): -68%

Cc1ccc(C(C)C)cc1.O=C(N=P(c1ccccc1)(c1ccccc1)c1ccccc1)c1ccccn1.[Cl-].[Cl][Ru+]
IC50 (IMR-90; cell growth or viability, MTT): 30.4 µM

COC(=O)[C@H](C(C)C)N(C)C(=O)[C@H](C(C)C)N(C)C(=O)[C@@H]1CCCN1C(=O)[C@H](C)N(C)C(=O)OC(C)(C)C
IC50 (HEK293; cell growth or viability, SRB): 413 µM and 368 µM and 325 µM

COc1ccccc1-c1n[nH]c2nc(NC3CCN(C(=O)Cc4ccc(F)cc4F)CC3)ncc12
relative abundance (bead binding, competition bead pull-down, item: LINJ.25.1850; Leishmania donovani axenic amastigote extract; 10 µM; reference: vehicle): 0.9

CC(=O)N[C@H](C(=O)N[C@@H](CCCNC(=N)N)C(=O)N[C@@H](CCCCN)C(=O)N[C@@H](CCCNC(=N)N)C(=O)N[C@H](C(=O)N[C@@]1(C)CCCC=CCCC[C@@](C)(C(=O)N[C@@H](CCC(N)=O)C(=O)N[C@@H](CCC(=O)O)C(=O)N[C@@H](CCCNC(=N)N)C(=O)N[C@@H](CCC(=O)O)C(=O)N[C@@H](CC(C)C)C(=O)N[C@H](C(=O)N[C@@H](CCC(=O)O)C(N)=O)C(C)C)NC(=O)[C@H](CC(C)C)NC(=O)[C@H](CCCNC(=N)N)NC(=O)[C@H](CCCNC(=N)N)NC1=O)[C@@H](C)O)C(C)C
IC50 (A-431; cell viability; 18 h, serum-free): > 50 µM

CC[C@H](C)[C@H](NC(=O)[C@H](CCCCN)NC(=O)CNC(=O)[C@H](CC(C)C)NC(=O)[C@H](Cc1ccccc1)NC(=O)[C@H](CCCCN)NC(=O)[C@H](CO)NC(=O)[C@H](Cc1ccccc1)NC(=O)[C@H](Cc1c[nH]c2ccccc12)NC(=O)[C@H](CCC(N)=O)NC(=O)[C@@H](NC(=O)[C@H](Cc1ccccc1)NC(=O)CCCCCNC(=O)CN1CCN(CC(=O)O)CCN(CC(=O)O)CCN(CC(=O)O)CC1)C(C)C)C(=O)N[C@@H](CCC(=O)O)C(=O)N1CCC[C@H]1C(=O)N[C@@H](CC(=O)O)C(=O)N[C@H](C(=O)N[C@@H](CO)C(=O)N[C@@H](CCC(N)=O)C(=O)N[C@H](C(=O)N[C@@H](CCC(N)=O)C(=O)N[C@@H](CC(=O)O)C(=O)N1CCC[C@H]1C(=O)N[C@@H](CC(N)=O)C(=O)N[C@@H](CC(=O)O)C(=O)N[C@@H](CCC(N)=O)C(=O)N[C@@H](Cc1ccc(O)cc1)C(=O)N[C@@H](CCC(=O)O)C(=O)N1CCC[C@H]1C(=O)N[C@@H](Cc1ccccc1)C(=O)O)C(C)C)C(C)C [copper-64 labelled]
tissue uptake (C57BL/6 mice, male, tumour-free, small intestine; 2 h): 8.14 ± 0.8 %ID/g

CC(=O)N[C@H](C(=O)N[C@@H](CCCNC(=N)N)C(=O)N[C@@H](CCCCN)C(=O)N[C@@H](CCCNC(=N)N)C(=O)N[C@H](C(=O)N[C@@H](CC(C)C)C(=O)N[C@@H](CCCNC(=N)N)C(=O)N[C@@]1(C)CCCC=CCCC[C@@](C)(C(=O)N[C@@H](CCCNC(=N)N)C(=O)N[C@@H](CCC(=O)O)C(=O)N[C@@H](CC(C)C)C(=O)N[C@H](C(=O)N[C@@H](CCC(=O)O)C(N)=O)C(C)C)NC(=O)[C@H](CCC(N)=O)NC(=O)[C@H](CC(C)C)NC(=O)[C@H](CC(C)C)NC1=O)[C@@H](C)O)C(C)C
IC50 (A-431 (wild-type EGFR); cell viability; 18 h): 10 ± 0.54 µM

O=C1NC2(CC2)COc2ncc(F)cc2[C@H]2COCCN2c2ccn3ncc1c3n2
organ-to-brain weight ratio (Sprague-Dawley rat, male, heart; oral, 5 mg/kg/day, 4 weeks, end of treatment): 73 ± 7.74%

CC(=O)[C@@H]1CCCN1C(=O)[C@@H]1CCCN1C(=O)[C@H](Cc1ccccc1)NC(=O)[C@@H](NC(=O)[C@@H](NC(=O)[C@@H](NC(=O)[C@@H]1CCCN1C(=O)[C@H](C)NC(=O)OC(C)(C)C)C(C)C)C(C)C)C(C)C
IC50 (HEK293; cell growth or viability, SRB): 423 µM and 355 µM and 309 µM

CC[C@@H](C)[C@@H](NC(=O)[C@@H](CCCCN)NC(=O)[C@H](NC(=O)[C@@H](CCC(N)=O)NC(=O)[C@@H](CCCNC(=N)N)NC(=O)[C@@H](CC(C)C)NC(=O)CNC(=O)[C@@H](Cc1ccccc1)NC(=O)CNC(=O)[C@@H](Cc1ccc(O)cc1)NC(=O)CNC(=O)[C@@H](CCCCN)NC(=O)[C@H](NC(=O)[C@@H](Cc1ccccc1)NC(=O)[C@H](NC(=O)[C@@H](CC(=O)O)NC(=O)[C@@H](CCCNC(=N)N)NC(=O)[C@@H](C)NC(=O)[C@@H](CO)NC(=O)[C@@H](CCCCN)NC(=O)CN)C(C)C)[C@H](C)O)[C@H](C)CC)C(=O)N[C@H](Cc1c[nH]c2ccccc12)C(=O)N[C@H](Cc1ccccc1)C(=O)N[C@H](CCC(N)=O)C(=O)N[C@H](CC(N)=O)C(=O)N[C@H](CCCNC(=N)N)C(=O)N[C@H](CCCNC(=N)N)C(=O)N[C@H](CCSC)C(=O)N[C@H](CCCCN)C(=O)N[C@H](Cc1c[nH]c2ccccc12)C(=O)N[C@H](CCCCN)C(=O)N[C@H](CCCCN)C(=O)O
IC50 (MEC1; cell growth or viability, flow cytometry; 90 min): 1.9 µM

Cc1cc(Nc2nc(C[C@@]3(C(=O)O)CCN(Cc4cccc(Cl)c4F)[C@H](C)C3)cc(C)c2F)[nH]n1
IC50 (SK-N-SH; cell growth or viability, ATP luminescence; 5 days): 0.0251 µM

CC(C)CCC[C@@H](C)[C@H]1CC[C@H]2[C@@H]3CC=C4C[C@@H](OC(=O)NCCCN(C)CCCNC(=O)Oc5ccc6c7c(c(NCCN(C)C)nc6c5)C(=O)c5ccccc5-7)CC[C@]4(C)[C@H]3CC[C@]12C
IC50 (ARPE-19; cytotoxicity, CCK-8; 48 h): ~0.175 µM

O=C1C=CC(=O)c2c(O)ccc(O)c21
IC50 (MOLT-3; cell growth or viability, XTT): 0.147 µM

CC(C)CC(C(=O)N1CC2(CC1C#N)C(=O)Nc1ccccc12)N(C)C(=O)c1cc2c(F)cc(F)c(F)c2[nH]1 (stereo not drawn)
inhibition (Human coronavirus 229E; cytopathic effect; MRC5; 16.91 nM): 97.9%

Cc1cc(Oc2nc(N3CC[C@@H](c4ccncc4)C3)ncc2F)[nH]n1
IC50 (prostate cancer cell lines; cell proliferation; average over lines): 75.9 µM

CC(=O)N[C@H](C(=O)N[C@@H](CCCNC(=N)N)C(=O)N[C@@H](CCCCN)C(=O)N[C@@H](CCCNC(=N)N)C(=O)N[C@H](C(=O)N[C@@H](CC(C)C)C(=O)N[C@@H](CCCNC(=N)N)C(=O)N[C@@H](CCCNC(=N)N)C(=O)N[C@]1(C)CCCC=CCCC[C@@](C)(C(=O)N[C@@H](CCCNC(=N)N)C(=O)N[C@@H](CCC(=O)O)C(=O)N[C@@H](CC(C)C)C(=O)N[C@H](C(=O)N[C@@H](CCC(=O)O)C(N)=O)C(C)C)NC(=O)[C@H](CCC(N)=O)NC(=O)[C@H](CC(C)C)NC1=O)[C@@H](C)O)C(C)C
IC50 (A-431 (wild-type EGFR); cell viability; 18 h): > 100 µM

CC(C)C12OC1C1OC13C1(C)CCC4=C(COC4=O)C1CC1OC13C2OC(=O)CCC(=O)OC1OC(CO)C(O)C(O)C1O (stereo not drawn)
IC50 (PC-3; cell growth or viability, XTT; 47 h): 0.5 µM

CCCCCCCC(=O)NCCCC[C@H](NC(=O)CCCCCCC)C(=O)N[C@@H](CCCCNC(=O)CCCCCCC)C(=O)NCC(=O)NCC(=O)NCC(=O)N[C@@H](CS)C(=O)N[C@@H](CCCNC(=N)N)C(=O)N[C@@H](CCCCN)C(=O)N1CCC[C@H]1C(=O)N[C@@H](CS)C(=O)N[C@@H](CCCNC(=N)N)C(=O)N[C@@H](CCCCN)C(=O)N1CCC[C@H]1C(=O)N[C@@H](CS)C(=O)N[C@@H](CCCNC(=N)N)C(=O)N[C@@H](CCCCN)C(=O)N1CCC[C@H]1C(N)=O
IC50 (HCE-T; cytotoxicity, MTT; 24 h): 139 µM

CC(C)(C)C(=O)OCOP(=O)(OCOC(=O)C(C)(C)C)C1CCCN(O)C1=O (stereo not drawn)
CC50 (SK-OV-3): > 100 µM

CN(C)[C@H]1C[C@@]23CC[C@@]4(O2)C(=CC[C@]2(C)[C@@H](c5ccc6ccncc6c5)CC[C@H]24)C=C3[C@@H](O)[C@@H]1O
inhibition (MATK (Homo sapiens, UniProt P42679); ATP probe labelling, inhibitor, KiNativ profiling; 0.1 µM): 2.5%

CCC1=C(C)C2=C(c3ccc(P(=NC(=O)c4ccccn4)(c4ccccc4)c4ccccc4)cc3)c3c(C)c(CC)c(C)n3[B-](C)(C)[N+]2=C1C
IC50 (IMR-90; cell growth or viability, MTT): 123 µM

CCC1(c2ccc(NC(=O)CCC(=O)OC3OC4OC5(C)CCC6C(C)CCC(C3C)C46OO5)cc2)CCC(=O)NC1=O (mixture of isomers)
IC50 (A2780; cell growth or viability, CCK-8): 1.05 µM

CS(C)(=O)=Nc1ccc(-c2ccc(-c3nc4cc(O[C@@H]5CO[C@H]6[C@@H]5OC[C@H]6O)[nH]c4cc3F)cc2)cc1
inhibition (PHKG2 (Homo sapiens, UniProt P15735); enzyme activity, inhibitor; 10 µM): -5%

Some of these lines once more:
CC(=O)N[C@H](C(=O)N[C@@H](CCCNC(=N)N)C(=O)N[C@@H](CCCCN)C(=O)N[C@@H](CCCNC(=N)N)C(=O)N[C@H](C(=O)N[C@@H](CC(C)C)C(=O)N[C@@H](CCCNC(=N)N)C(=O)N[C@@H](CCCNC(=N)N)C(=O)N[C@]1(C)CCCC=CCCC[C@@](C)(C(=O)N[C@@H](CCCNC(=N)N)C(=O)N[C@@H](CCC(=O)O)C(=O)N[C@@H](CC(C)C)C(=O)N[C@H](C(=O)N[C@@H](CCC(=O)O)C(N)=O)C(C)C)NC(=O)[C@H](CCC(N)=O)NC(=O)[C@H](CC(C)C)NC1=O)[C@@H](C)O)C(C)C
IC50 (A-431 (wild-type EGFR); cell viability; 18 h): > 100 µM

CC(C)C12OC1C1OC13C1(C)CCC4=C(COC4=O)C1CC1OC13C2OC(=O)CCC(=O)OC1OC(CO)C(O)C(O)C1O (stereo not drawn)
IC50 (PC-3; cell growth or viability, XTT; 47 h): 0.5 µM

CCCCCCCC(=O)NCCCC[C@H](NC(=O)CCCCCCC)C(=O)N[C@@H](CCCCNC(=O)CCCCCCC)C(=O)NCC(=O)NCC(=O)NCC(=O)N[C@@H](CS)C(=O)N[C@@H](CCCNC(=N)N)C(=O)N[C@@H](CCCCN)C(=O)N1CCC[C@H]1C(=O)N[C@@H](CS)C(=O)N[C@@H](CCCNC(=N)N)C(=O)N[C@@H](CCCCN)C(=O)N1CCC[C@H]1C(=O)N[C@@H](CS)C(=O)N[C@@H](CCCNC(=N)N)C(=O)N[C@@H](CCCCN)C(=O)N1CCC[C@H]1C(N)=O
IC50 (HCE-T; cytotoxicity, MTT; 24 h): 139 µM
